Measurements of several laboratories.
Each line is one published result; not all experiments were run side by side. ± gives the spread as reported.
Target: Kappa-type opioid receptor (OPRK1, Homo sapiens, UniProt P41145)

The Ki of `COC(=O)[C@@H]1C[C@H](OC(C)=O)C(=O)[C@H]2[C@@]1(C)CC[C@H]1C(=O)O[C@H](C(=O)c3ccco3)C[C@]21C` is reported as > 1000 nM (radioligand binding; together with: [3H]diprenorphine).
For `N#Cc1cc(C(=O)N[C@@H]2CC[C@@]3(O)[C@H]4Cc5ccc(O)c6c5[C@@]3(CCN4CC3CC3)[C@H]2O6)ccn1`, the EC50 was 0.28 ± 0.03 nM (agonist; CHO cell membranes).
For `COC(=O)[C@@H]1C=C(OC(=O)c2ccc(O)c(F)c2)C(=O)[C@H]2[C@@]1(C)CC[C@H]1C(=O)O[C@H](c3ccoc3)C[C@]21C`, the EC50 was > 10000 nM (forskolin-induced cAMP inhibition, agonist; CHO-K1 expressing human KOR).
`O=C(Cc1ccc(Cl)c(Cl)c1)N1CCN[C@@H]2CCC[C@H](N3CCCC3)[C@H]21` gave an EC50 of 240 ± 86 nM (G protein activation, agonist; racemate).
`COC(=O)[C@@H]1C=C(OC(=O)c2ccc3ccoc3c2)C(=O)[C@H]2[C@@]1(C)CC[C@H]1C(=O)O[C@H](c3ccoc3)C[C@]21C` has an EC50 of > 10000 nM (forskolin-induced cAMP inhibition, agonist; CHO-K1 expressing human KOR).
For `Oc1cccc2c1OC1CCCC3CN(CC4CC4)CCC231` (single isomer, unassigned), the EC50 was 2.3 ± 0.7 nM (partial agonist).
For `O=C(N[C@@H]1CC[C@@]2(O)[C@H]3Cc4ccc(O)c5c4[C@@]2(CCN3CC2CC2)[C@H]1O5)c1ccnc(Br)c1`, the EC50 was 0.34 ± 0.03 nM (agonist; CHO cell membranes).
`CN1CC[C@]23c4c5ccc(O)c4O[C@H]2c2ncc(-c4ccc(Cl)cc4)cc2C[C@@]3(OCCCc2ccccc2)[C@H]1C5` gave a Ki of 9.4 ± 2.4 nM (binding, [3H]diprenorphine displacement; CHO membranes).

Excerpt of the above:
For `O=C(N[C@@H]1CC[C@@]2(O)[C@H]3Cc4ccc(O)c5c4[C@@]2(CCN3CC2CC2)[C@H]1O5)c1ccnc(Br)c1`, the EC50 was 0.34 ± 0.03 nM (agonist; CHO cell membranes).
